Results collected from several papers.
Compare with care: the assays were run in different laboratories. Values joined by “and” are separate records of one study, mostly repeats; a detail may differ.
Target: Casein kinase I isoform gamma-3 (CSNK1G3, Homo sapiens, UniProt Q9Y6M4)
Sequence of UniProt Q9Y6M4 (whole entry, looked up): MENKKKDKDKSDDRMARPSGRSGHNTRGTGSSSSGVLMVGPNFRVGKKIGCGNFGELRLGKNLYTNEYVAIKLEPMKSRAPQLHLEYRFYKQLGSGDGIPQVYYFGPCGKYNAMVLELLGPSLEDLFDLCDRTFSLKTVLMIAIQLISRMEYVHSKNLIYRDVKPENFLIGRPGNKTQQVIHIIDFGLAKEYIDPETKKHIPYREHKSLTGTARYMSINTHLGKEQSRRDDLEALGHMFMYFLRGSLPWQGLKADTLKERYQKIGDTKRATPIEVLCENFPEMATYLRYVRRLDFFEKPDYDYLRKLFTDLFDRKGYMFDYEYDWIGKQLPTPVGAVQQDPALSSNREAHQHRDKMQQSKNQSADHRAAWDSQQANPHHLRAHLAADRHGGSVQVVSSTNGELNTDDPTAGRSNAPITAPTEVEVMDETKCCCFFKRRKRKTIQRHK

SMILES	assay	conditions	how to read	quantity	value
CNC1C[S+]2CC[S+]3CC[S+](C1)[Ru-4]321([N]=C=S)[n]2c3ccc(OC)cc3c3c4c(c5cc(F)c[n+]1c5c32)C(=O)NC4=O (stereo not drawn)	KinomeScan	0.1 µM	baseline: untreated	remaining binding	100%
Cc1cccc(O[C@H]2CCC[C@@H](C(C)CNCc3ccncc3)C2)c1 (relative stereo)	kinase activity, kinome panel screening	1 µM		inhibition	-1%
C=CC(=O)Nc1cccc(-c2cnc3[nH]cc(C(=O)NC(C)(C)C)c3n2)c1	kinase activity	0.1 µM		inhibition	4% and 6%
CN1CC[C@@H](COc2cnc(C#N)cc2-c2ccn3nc(NC(=O)C4CC4)cc3c2)C1	enzyme activity, inhibitor	1 µM		inhibition	-5%
CN1CCN(Cc2ccc(-c3ccc(CO[C@H]4CCC[C@@H]4NC(=O)c4cc(-c5cnn(C)c5)cnc4N)cc3)cc2)CC1	enzyme activity, inhibitor	0.1 µM		inhibition	-2%
C=CC(=O)N1CCc2ccc(-n3c(=O)ccc4cnc5ccc(-c6cnn(C)c6)cc5c43)cc21	KINOMEscan	1 µM	baseline: DMSO control	remaining binding	99%
COc1ccc(NC(=O)Nc2ccc3c(c2)C(=O)N(C(C)CO)CC(C)C(CN(C)Cc2ccc4c(c2)OCO4)O3)cc1 (stereo not drawn)	kinase activity, KinaseProfiler	0.03 µM, species human	baseline: control	remaining activity	99%
CCN1CCN(Cc2ccc(C(=O)Nc3ccc(C)c(NCc4cnc5[nH]ccc5c4OC)c3)cc2C(F)(F)F)CC1	binding, competition with immobilised ligand	1 µM		remaining binding	99%
COc1cc(Nc2nccc(-c3cnn4nc(OC)ccc34)n2)cc(C(F)(F)F)c1	binding, competition with immobilised ligand	1 µM		remaining binding	100%
NC(=O)C[C@H]1CCc2sc3ncnc(O[C@H]4CC[C@H](N5CCOCC5)CC4)c3c21	enzyme activity, inhibitor	10 µM		inhibition	5%
Cc1cnc2nc1Nc1cccc(c1)COC/C=C/COCc1cc(ccc1OCCN1CCOCC1)N2		concentration not given		percent of control	97%
O=C(Cc1ccc(OCc2ccccc2)cc1)NC1(C(=O)O)CCN(C(=O)c2ccc(-c3cccc(Cl)c3)cc2)CC1	enzyme activity, inhibitor	10 µM		activity vs control	78%
CNC(=O)C1CCN(c2cc(C)c(F)cc2NC(=O)c2ccc(-c3cc(O)ccc3C)c(C)c2)CC1	binding, competition with immobilised ligand	1 µM		remaining binding	74%
CCn1cc(C(=O)O)c(=O)c2c(N)c(F)c(NC3CCCCC3)cc21	kinase activity	0.1 µM, with: ATP at Km		inhibition	3.4%
COc1c(OCCCN2CCOCC2)ccc2c1N=C(NC(=O)c1cnc(N)nc1)N1CCN=C21	kinase activity, inhibitor	1 µM	baseline: untreated control	remaining activity	117%

Repeated from above:
SMILES	assay	conditions	how to read	quantity	value
C=CC(=O)N1CCc2ccc(-n3c(=O)ccc4cnc5ccc(-c6cnn(C)c6)cc5c43)cc21	KINOMEscan	1 µM	baseline: DMSO control	remaining binding	99%
COc1ccc(NC(=O)Nc2ccc3c(c2)C(=O)N(C(C)CO)CC(C)C(CN(C)Cc2ccc4c(c2)OCO4)O3)cc1 (stereo not drawn)	kinase activity, KinaseProfiler	0.03 µM, species human	baseline: control	remaining activity	99%
